{"data": "Assay results gathered from unrelated publications", "target": "Transporter (Slc6a2, Rattus norvegicus, UniProt Q63380)", "note": "Each line is one published result; not all experiments were run side by side. ± marks the error that the study gave."}
{"SMILES": "CNCCc1c[nH]c2ccc(OC)cc12", "assay": "transmitter release, releaser", "test system": "rat brain synaptosomes", "conditions": "added: [3H]MPP+", "EC50": "> 10000 nM"}
{"SMILES": "CNC(C)Cc1ccc2occc2c1 (stereo not shown)", "assay": "transporter-mediated release, substrate", "test system": "rat brain synaptosomes", "conditions": "30 min, added: [3H]MPP+", "EC50": "24 ± 3 nM"}
{"SMILES": "C[C@@H]1N=C(N)O[C@@H]1c1ccccc1 (racemic)", "assay": "substrate release, releaser, [3H]MPP+ release", "test system": "rat brain synaptosomes", "conditions": "added: [3H]MPP+ 9 nM", "EC50": "4.8 ± 0.9 nM"}
{"SMILES": "NC1Cc2cc3c(cc2C1)OCO3", "EC50": "117 ± 17 nM"}
{"SMILES": "CNC(C)C(=O)c1cccc(OC)c1 (stereo not shown)", "assay": "releaser", "EC50": "111 nM"}
{"SMILES": "C[C@@H]1N=C(N)O[C@@H]1c1ccc2c(c1)OCO2 (racemic)", "assay": "substrate release, releaser", "test system": "rat brain synaptosomes", "conditions": "added: [3H]MPP+ 9 nM", "EC50": "14.8 ± 2.7 nM"}
{"SMILES": "CNC(C)C(=O)c1ccccc1Cl (stereo not shown)", "assay": "releaser", "EC50": "93 nM"}
{"SMILES": "COc1cc2c(cc1C)CC(N)C2 (stereo not shown)", "EC50": "3100 ± 728 nM"}
{"SMILES": "CNC(C)C(=O)c1ccccc1Br (stereo not shown)", "assay": "releaser", "EC50": "156 nM"}
{"SMILES": "Cc1ccc([C@H]2OC(N)=N[C@H]2C)cc1 (relative stereo)", "assay": "substrate release, releaser", "test system": "rat brain synaptosomes", "conditions": "added: [3H]MPP+ 9 nM", "EC50": "11.8 ± 2 nM"}
{"SMILES": "CC1NCCOC1c1cccc(F)c1 (stereo not shown)", "conditions": "concentration not given", "EC50": "17 ± 4 nM"}
{"SMILES": "CNC(C)C(=O)c1cccc(Br)c1 (stereo not shown)", "assay": "releaser", "EC50": "25 nM"}
{"SMILES": "NC1=NCC(c2ccccc2)O1 (stereo not shown)", "assay": "biochemical", "EC50": "15.1 ± 3.5 nM"}
{"note": "Excerpt of the above:"}
{"SMILES": "CNC(C)C(=O)c1cccc(OC)c1 (stereo not shown)", "assay": "releaser", "EC50": "111 nM"}
